Published values gathered from unrelated publications.
A part holds a random share of what one study measured.

Study 1
Target: Histone acetyltransferase KAT6A, winged helix 1, GST fusion (KAT6A, Homo sapiens, UniProt Q92794, residues 1-85)
Technique: protein binding microarray
Molecule type: double-stranded DNA, one strand shown
Sample: in vitro
Tested at: not given
Setting: 8-mer, flanks averaged, mean of 2 arrays, mostly near background
Baseline: not given
Direction: higher = stronger binding
Target sequence (chain): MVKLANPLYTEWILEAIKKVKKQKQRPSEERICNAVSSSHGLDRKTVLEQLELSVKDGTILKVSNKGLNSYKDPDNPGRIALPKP
Strand	E-score
ACGGCTCA	0.207
CCCGCAAC	0.277
CAGACCAA	-0.331
GAATAAGC	-0.108
GAATACAC	-0.132
CCAGAGGA	-0.271
CGACACGC	0.0981
GTACCTCA	-0.182
GAAGCTGA	-0.00721
GGTCAATA	-0.107
ACTTGAAC	-0.194
ATAAAGAA	-0.1
ATTCCGGC	0.169
GAGGGTAC	-0.0781
CAAGAAGA	-0.237
GATGTTCC	-0.0596
CGAGGAGC	-0.0533
CCCCCAAC	-0.22
TATGGGGA	-0.0448
ATCGATGA	-0.209
GGCTCGAA	-0.103
CACTACGG	0.228
AAAACCTC	-0.0174
AGAACTCA	-0.159
AAAGCTTG	-0.191

Study 2
Target: RNA binding protein fox-1 homolog 2, RRM domain, GST-SBP tag (RBFOX2, Homo sapiens, UniProt O43251-10, residues 100-194)
Technique: RNA Bind-n-Seq
Molecule type: RNA
Sample: in vitro
Tested at: 365 nM
Setting: natural RNA segment, single round, ends assumed
Baseline: no-protein control
Direction: higher = stronger binding
Shared flanks, not repeated: GGGAGUUCUACAGUCCGACGAUC … UGGAAUUCUCGGGUGCCAA
Construct (chain): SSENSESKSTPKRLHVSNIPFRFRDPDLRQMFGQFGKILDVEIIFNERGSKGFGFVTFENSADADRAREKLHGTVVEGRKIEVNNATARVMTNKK
Strand	RBNS enrichment (R)
UUUUGGACUCACGUAAUGUAGAAUGCAAAGUUUAGUGAUUAUUUAAUCUGGGCCUAAGCUAGUGAGAGUAUGGAACAAUGGCCCAUAAGGACUCCUAAGCGCCGAAGCCA	1.15
UGUGUUGCGUGCCUGCUUAGCAUAUACAAGGGCCUGGGACUGGGCCCCAGUAUGGAAGAAAGACUUAACCUGUGGGAAAAACAAUUAUCUUUUUAAAUAGAGAGCUAUGU	4.39
UCAGAGUCAGUUGCACACCAGUAGGAUGGCAUGCUACGAUCAGUUUCUGUCCUGAAAGCUUUGCCUCUUUCUUGGCAAAGUUUCUGGUAUGGUCAAGCUUGUAAAUAACC	0.573
UCGUGUCCAGAGAGGGACAGGGUCUCAUUGUCACCCUCCAAAUACAUAAAGGCUGGUUCAGAAUGUUCUACUCUGUCUCUUUGUUUGUGGUCUAGUUGUCCCUGUUGGUU	0.897
CGGUUGUAGCGGAGUGGGCUGAACACUGUAACACUGUACAUGCGAUUUCCCCAUGGGCUUCUAAAAUGUCACCAUCUCCUCCCCUGCUGUGUCCUACUCCAUUUACUGGU	0.4
UUGGUGGUCCUAAGUGGGUCACUUAAGAAAAAAAAGUGUAACAAAUUCUCGCUCCAUGAACCUGGUUUUUUUUUAUUCUGUUGUGGAAAUUUUUAAAUCUCCAACUUGCU	0.621
CAGCUUCGGGGCAAGUGAGACAAUCACAGCUCCUCGCUGCGUCUCCAUCAACACUGCGCCGGGUACCAUGGACGGCCCCGUCAGCCACACCUGUCAGCCCAAGCAGAGUG	0.327
CUGCACAUGGAACUGCAGGGCAGGCUGGCGGGGGGCCUUCAGAUCUCAGAUGAGACUGCACCCCUUCGACCACCCUACUGGGCACCUGCCUCCAGCCCCUGAGAACUCCA	0.254
AUGUAAAAUAAAAAUAAAUAACUCUUUUAAAAUAAUCAUUUUUUUAAAAAUGGACUUGCAAACUCAUAGUACCUGGCUGCACACGUCCUCGCCUCUGUUUGUCUGGCUCU	0.73
UGUUAACCAAAGGAGGCAUUGAUUUCAGUUUUAAGGCUACUCAGUGUUGUGUGUCCAGGGAAAUUCACAGCUCAGUAUGAGAAUACCUUGGUUAGUGCUCACCCACAAGC	0.393
GACUCCCACCCUGGCAUCAGACACCAGGCUUUGUCUUCUGGAGUUGCAGCCAGCGCUGCCCCAUGCCCUUCUGAUCCUCCCCCUCUCCCACCGCCCUCCCUGGAUAGGAU	0.716
CCUCACUGAGUGCCUCAUCCUACCGGGUGUCCCUUUGCCACCCUGCCUGGGACAUCGCUGGAACCUGCACCAUGCCAGGAUCAUGGGACCAGGCGAGAGGGCACCCUCCC	0.264

Study 3
Target: Fragile X messenger ribonucleoprotein 1, C-terminal low-complexity region (Fmr1, Mus musculus, UniProt P35922)
Technique: RNA Bind-n-Seq
Molecule type: RNA
Sample: in vitro
Tested at: 200 nM
Setting: whole 134-nt RNA, ends assumed
Added: 150 mM LiCl
Baseline: input library
Direction: higher = stronger binding
Library: 7-deaza-guanosine replaces G
Shared flanks, not repeated: GGGAGUUCUACAGUCCGACGAUC … UGGAAUUCUCGGGUGUCAAGG
Strand	log2 enrichment
CCUCAAGUCCUGUGCUACACAUCGUAUGUACCGAAUCGGGGAGGGAGGAGGGAAAGUAUUAUGUUACGCCGUUCGGAUCUGCACUUCCAG	-0.441
UGGCCCUGGUGGCAUGCGGGGAGGAAGAGGUGGCCUCAUGGAUCGUGGUGGUCCCGGUGGAAUGUUCAGAGGUGGCCGUGGUGGAGUCAG	0.126
AGUCCUGUGCUACACAUCGUAUGUACCGAAUCGGAAAAAGGUUUUUGGAAAAAAAGGAAAGUAUUAUGUUACGCCGUUCGGAUCUGCACU	-2.47
CUCAAGUCCUGUGCUACACAUCGUAUGUACCGAAUCGGAAAGGAAAGGAAAGGAAAGUAUUAUGUUACGCCGUUCGGAUCUGCACUUCCA	-0.301
UUUAAUGUCUGCGGCACAAUGCCUGUCUGUGGGACCAUCCUGGGAAAACCUGCUUCUGGCUGUGAGGCAGAAACCCAAACUGAAGAGCUC	0.684
UCCUCAAGUCCUGUGCUACACAUCGUAUGUACCGAAUCGGGUGGUGGGGUGGAAAGUAUUAUGUUACGCCGUUCGGAUCUGCACUUCCAG	-0.116
CUCAAGUCCUGUGCUACACAUCGUAUGUACCGAAUCGGGUUGGUUGGGUUGGGGAAAGUAUUAUGUUACGCCGUUCGGAUCUGCACUUCC	-1.06
CACAGACAACACGCACCCACACAGACACAGAGGGAAGCGGUUGGGAUGGGGACAGGGUGCACAGCAGGGCGGGGUAGGACCCCAGCCCCU	-1.53
AGUCCUGUGCUACACAUCGUAUGUACCGAAUCGGAAAAGGGAAAAGGGGAAAAGGGGAAAGUAUUAUGUUACGCCGUUCGGAUCUGCACU	-0.69
UGCUGUGCAGCGGCAUCGGCCCACUGUGGUGGAAUGUCUACGGGAAACUGAUGCCUCCCUCAGCCGGUGAGCAGUGAUAGAGGGGACAGG	-1.38
GUCCUGUGCUACACAUCGUAUGUACCGAAUCGGGAAAAAAAGGGUUUUUUUGGGAGGGAAAGUAUUAUGUUACGCCGUUCGGAUCUGCAC	-1.8

Study 4
Target: Interferon regulatory factor 5, full length, phosphomimetic (IRF5, Homo sapiens, UniProt Q13568-2, residues 1-514, S451D/S453D/S456D/S462D)
Technique: protein-binding microarray
Molecule type: double-stranded DNA, one strand shown
Sample: in vitro
Tested at: 940 nM top
Setting: 60-bp whole probe
Added: salmon DNA 0.4 mg/ml
Baseline: random background probes
Direction: higher = stronger binding
Shared flanks, not repeated: GCCTAGCAC … GTCTTGATTCGCTTGACGCTGCTG
Strand	fitted relative affinity [z-score]
TTAGATTCCAGTTTCGATTAGTGCTAG	8.85
GACGGATCCGGTTTCGGGACGTGCTAG	4.04
TCAGTTACCCACCTCAGACTGTGCTAG	0.358
TTAGGACTGGACTATCGGCTAGTGCTA	-0.422
CCAGTGCTGCTTTGTCAAGAGTGCTAG	-0.577
TTAGAACTAAGACTGGATTAGTGCTAG	-0.499
AAGTTTTTCATTTTTTTTCAGTGCTAG	1.54
TATCTTATGATATATATAATAGTGCTA	0.261
GACGGTATCGACACTGGGGGCGTGCTA	5.52
AGATTTATCAAATGTGGGATTGTGCTA	-0.735
TTAGGTCTCTTACTGCTTTAGTGCTAG	0.202
GACGATCGCAGTATCGAGACGTGCTAG	1.4
TTAGGTTTCCATATCCTTTAGTGCTAG	1.95
CTCCCTTTCAGTTTTCCTCTGTGCTAG	2.43
TTTCCACTTTCTTTTGCTTGGTGCTAG	2.97
TCAGCTTTGCCTTTTGCACTGTGCTAG	0.0346
CTCAAAGTCTTTTATGGTATTGTGCTA	-0.0253
GACGGTATCGACTTTCGGCACGTGCTA	4.63
GACGGTTCCCTTTTCTTGACGTGCTAG	1.02
GACGGTTTCGTCTATCGGGACGTGCTA	6.9
TTAGATCTCCGTATCGATTAGTGCTAG	1.65
CTGAGGCTGTGTTTTCACTTTGTGCTA	0.0445
TTAGGTTTCAGGTATCGGTTAGTGCTA	6.71
TTAAAACTGGGGTATCGATTAGTGCTA	3.37
TCAAGTTTGTATATATTACTGTGCTAG	0.133
